Published values gathered from unrelated publications.
Numbered parts are unrelated; each lists some results of a single study. Changes are numbered by the printed parent chain.

Sample 1
Target: Ras GTPase-activating protein-binding protein 1, RRM domain (G3BP1, Homo sapiens, UniProt Q13283)
Sequence of UniProt Q13283 (whole entry, looked up): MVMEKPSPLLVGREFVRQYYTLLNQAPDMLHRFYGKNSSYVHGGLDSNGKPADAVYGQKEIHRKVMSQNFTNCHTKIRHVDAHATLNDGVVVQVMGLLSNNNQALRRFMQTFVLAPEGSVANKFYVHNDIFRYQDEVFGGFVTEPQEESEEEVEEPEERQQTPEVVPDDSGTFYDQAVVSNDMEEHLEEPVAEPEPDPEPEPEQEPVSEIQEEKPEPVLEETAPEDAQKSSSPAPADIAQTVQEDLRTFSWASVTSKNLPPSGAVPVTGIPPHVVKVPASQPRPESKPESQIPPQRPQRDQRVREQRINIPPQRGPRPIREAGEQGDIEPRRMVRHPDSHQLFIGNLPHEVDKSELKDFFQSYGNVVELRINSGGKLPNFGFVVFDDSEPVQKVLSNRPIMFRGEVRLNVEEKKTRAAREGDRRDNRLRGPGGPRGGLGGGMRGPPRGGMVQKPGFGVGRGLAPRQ
Method: RNA Bind-n-Seq
Molecule type: RNA
Sample: in vitro
Concentration: 1 µM
Notes: whole 134-nt RNA, ends assumed
With: 150 mM KCl
Relative to: input library
Reading: higher = stronger binding
Shared flanks, not repeated: GGGAGUUCUACAGUCCGACGAUC … UGGAAUUCUCGGGUGUCAAGG
Oligonucleotide	log2 enrichment
UUAGUGAAUGUAUAGAAGGAGUAAAGGUAGAGCACAAUCCUGACCUGUCAGUUACUGUCAGCACCAAAAAAUCCCACCAGACAUGGACCU	0.199
CCUGUGCUACACAUCGUAUGUACCGAAUCGGGCCCCCCCGGCCCCCCCGGGCCCCCCCGGAAAGUAUUAUGUUACGCCGUUCGGAUCUGC	-0.614
AAGUCCUGUGCUACACAUCGUAUGUACCGAAUCGGGGAAAAAGGGGUGGGGAGGGGAAAGUAUUAUGUUACGCCGUUCGGAUCUGCACUU	0.678
CCUGUGCUACACAUCGUAUGUACCGAAUCGGGUUUUUGGGUUUUUUUGGGUUUUUUUGGGAAAGUAUUAUGUUACGCCGUUCGGAUCUGC	-0.244
CAAGUCCUGUGCUACACAUCGUAUGUACCGAAUCGGGCCCGGGCCCGGCCCGGGGAAAGUAUUAUGUUACGCCGUUCGGAUCUGCACUUC	-0.73
AGUCCUGUGCUACACAUCGUAUGUACCGAAUCGGGGAAAGGGGUGGGGAAAAAGGGGAAAGUAUUAUGUUACGCCGUUCGGAUCUGCACU	0.914
UGGGAGGUGGAUUUUGUUUAUUUUUUUAGCUCAUUUCCAGGGGUGGAAAUUUUUUUUUAAUAUGUGUCAUGAAUAAAGUUGUUUUUGAAA	1.51

Sample 2
Target: CCNB1, cyclin fold, Cln2 fusion (human)
Method: yeast growth competition, sequencing
Sample: yeast
Notes: strong parent motif
Relative to: not given
Reading: higher = stronger binding
Starting sequence: PKMYT1 docking peptide (human); SFEPRNLLSLFED; partner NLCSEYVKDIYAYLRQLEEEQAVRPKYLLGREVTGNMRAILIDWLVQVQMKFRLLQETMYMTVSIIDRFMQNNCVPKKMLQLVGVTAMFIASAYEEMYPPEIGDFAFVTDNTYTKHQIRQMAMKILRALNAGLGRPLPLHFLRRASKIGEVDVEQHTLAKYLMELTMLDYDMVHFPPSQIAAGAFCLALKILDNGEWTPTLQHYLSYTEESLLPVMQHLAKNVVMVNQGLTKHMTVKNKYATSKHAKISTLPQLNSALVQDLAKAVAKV
Change	normalised enrichment score
F2E	-0.325
P4L	0.138
L10G	0.21
L7K	-0.208
F11D	-0.487
F2S	-0.096
R5V	0.62
N6I	0.253
R5M	1.18
P4F	-0.0473
S1M	1.42
E3K	2.02
D13E	1.6

Sample 3
Target: ABI1, truncated, D143A, DHFR fusion (Arabidopsis thaliana)
Method: DHFR PCA, deep sequencing
Sample: yeast
Notes: methotrexate growth selection, single substitutions
With: (+)-ABA 0.11 µM
Relative to: wild-type fitted maximum
Reading: higher = stronger binding
Starting sequence: PYL1, truncated, DHFR fusion (Arabidopsis thaliana); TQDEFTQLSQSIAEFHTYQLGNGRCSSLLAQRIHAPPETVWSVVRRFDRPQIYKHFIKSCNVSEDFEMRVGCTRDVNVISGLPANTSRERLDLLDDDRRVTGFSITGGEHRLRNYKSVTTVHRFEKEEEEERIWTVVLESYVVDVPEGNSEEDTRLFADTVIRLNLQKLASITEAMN
Change	relative binding score [%]
M68S	-0.919
R155K	54.6
I12A	2.11
T86C	33.6
T17Y	-4.91
F124Q	5.85
Y141M	-7.9
F66D	5.29

Sample 4
Target: RING finger protein unkempt homolog, zinc fingers 1-6, GST-SBP tag (UNK, Homo sapiens, UniProt Q9C0B0, residues 30-357)
Sequence of UniProt Q9C0B0 (30-357, looked up): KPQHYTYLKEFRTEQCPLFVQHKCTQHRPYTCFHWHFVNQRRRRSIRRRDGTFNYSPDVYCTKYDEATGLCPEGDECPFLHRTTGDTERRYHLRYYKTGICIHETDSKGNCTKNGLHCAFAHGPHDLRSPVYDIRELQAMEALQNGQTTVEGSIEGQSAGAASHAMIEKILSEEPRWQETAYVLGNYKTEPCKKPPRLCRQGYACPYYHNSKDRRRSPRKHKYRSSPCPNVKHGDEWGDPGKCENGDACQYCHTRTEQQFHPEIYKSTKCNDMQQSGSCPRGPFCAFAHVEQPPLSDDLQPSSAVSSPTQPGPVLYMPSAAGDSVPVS
Method: RNA Bind-n-Seq
Molecule type: RNA
Sample: in vitro
Concentration: not given
Notes: RNA with constant flanks, human-mouse chimeric sites, ends assumed
Relative to: input RNA pool
Reading: higher = stronger binding
Shared flanks, not repeated: GGGAGUUCUACAGUCCGACGAUC … CAACAGAGGAUUGAGCAUCA
Oligonucleotide	bound/input enrichment
AUGGAGAAGGAUUCUCUGCCCCGCUUUGUGCGCUCUGAAUUUUAUAAGGAGCUAAUCAAGUAGUCAUCUGGUCAGGCUAUGAAAUCAUGCCCUGUGAGUUGAGUUACAUAAUAACCCGCA	0.245 ratio
CAGCCUCAGAGCCCAGACUUCCUGGAUAUUACCAACCCUAAAGCGGUAUUAGAAAAUGCAUUGAGAAACUUCGCCUGUCUGACCACCGGAGAUGUGAUUGCCAUCAACUACAAUGAGAAG	0.427 ratio
UUUGUAUUUAUGCUAAGCACACGUGCUGGUGGUCUGGGCAUCAAUCUUGCAACUGCUGAUGUAGUAAUUUUAUAUGAUUCUGAUUGGAAUCCGCAAGUUGAUCUUCAGGCUAUGGACCGU	1.75 ratio
CAGGGCAUCAUCUCUCGUGCUGUUAGACACCUGUUCAAGAGUAUUGAUGAGAAAAAGACCUCAGCGAUUAAAAAUGGGCUGCCCCCUCCAGAUUUUAAAGUGAAUGCCCAGUUCCUAGAG	0.378 ratio
UUGAAAACUGAUUCAAGUAAGUUUGAGUAUCACAAUGUUAGCUUUCUAAUUCCAUAAAGAUAGUUUUUACAGUUUCUUUAUAAUCUGACAUCACCCCAGCGCCAUUUGUAAAGAGCAACU	3.22 ratio
GUUCGGCUCUGGGAUCAUGCCACAAUGACAGAAGUGAAAUCUCUAAAUUUUAAUAUGUCUGUUAGCAGCAUGGAGUAUAUUCCUGAGGGAGAGAUUUUGGUUAUUACUUAUGGACGAUCU	0.379 ratio
UUACCCGAGAACGAGGAUGAGCUGGAGAGCACCAACAGGCGCUACACCAAGAGGGACUGCAGCACUUUUCUCAGAACUAGUGAGACGGGCAUCGUGGACCAGGUCAUGGUCACUCUCAAC	0.169 ratio
AAUUUCCUGUCAUACUUUUUAGACAUUCACAUCAGACUUACAGAGCACCUGGCCACAUUCUAGGUUUGUGUUAUUUCUAAGCCUUUUAUAUGAUCAAAGAGUGAAAAUGCUUAACUAAUG	0.268 ratio

Sample 5
Target: Interferon regulatory factor 5, full length, phosphomimetic (IRF5, Homo sapiens, UniProt Q13568-2, residues 1-514, S451D/S453D/S456D/S462D)
Method: protein-binding microarray
Molecule type: double-stranded DNA, one strand shown
Sample: in vitro
Concentration: 940 nM top
Notes: 60-bp whole probe
With: salmon DNA 0.4 mg/ml
Relative to: random background probes
Reading: higher = stronger binding
Shared flanks, not repeated: GCCTAGCAC … GTCTTGATTCGCTTGACGCTGCTG
Oligonucleotide	fitted relative affinity
TTAGGTTACGGTTTCGGTTAGTGCTAG	7.36 z-score
TGAGAACTGAGTATCGATTAGTGCTAG	4.79 z-score
TTAGAACTGAGTCTCGAATAGTGCTAG	0.563 z-score
GACGGTTTCGTTTCCGGGACGTGCTAG	8.31 z-score
CGACATCTGCAAGATCCACAAGTGCTA	-0.386 z-score
GACGAACTGGGATATCGAGACGTGCTA	-0.295 z-score
GACGGGATCGGACTGGGGACGTGCTAG	-0.188 z-score
GACGGTCTCGGGTTTCGGGACGTGCTA	3.5 z-score
TCAAAAATCCCATTAAAACTGTGCTAG	0.22 z-score
TTGGATTTCGGGTTTCGATTAGTGCTA	5.92 z-score
GACGGTTCCGGGTTCGGGACGTGCTAG	1.13 z-score
TTAGAAATGAGTATCGATTAGTGCTAG	4.6 z-score
TTAGGTTTCGGGTTTTGGTTAGTGCTA	9.23 z-score
TTAGGACTGCTTTTCCTTTGGTGCTAG	-0.138 z-score

A few entries again (sample 4):
Oligonucleotide	bound/input enrichment
UUUGUAUUUAUGCUAAGCACACGUGCUGGUGGUCUGGGCAUCAAUCUUGCAACUGCUGAUGUAGUAAUUUUAUAUGAUUCUGAUUGGAAUCCGCAAGUUGAUCUUCAGGCUAUGGACCGU	1.75 ratio
CAGGGCAUCAUCUCUCGUGCUGUUAGACACCUGUUCAAGAGUAUUGAUGAGAAAAAGACCUCAGCGAUUAAAAAUGGGCUGCCCCCUCCAGAUUUUAAAGUGAAUGCCCAGUUCCUAGAG	0.378 ratio
UUGAAAACUGAUUCAAGUAAGUUUGAGUAUCACAAUGUUAGCUUUCUAAUUCCAUAAAGAUAGUUUUUACAGUUUCUUUAUAAUCUGACAUCACCCCAGCGCCAUUUGUAAAGAGCAACU	3.22 ratio
GUUCGGCUCUGGGAUCAUGCCACAAUGACAGAAGUGAAAUCUCUAAAUUUUAAUAUGUCUGUUAGCAGCAUGGAGUAUAUUCCUGAGGGAGAGAUUUUGGUUAUUACUUAUGGACGAUCU	0.379 ratio
UUACCCGAGAACGAGGAUGAGCUGGAGAGCACCAACAGGCGCUACACCAAGAGGGACUGCAGCACUUUUCUCAGAACUAGUGAGACGGGCAUCGUGGACCAGGUCAUGGUCACUCUCAAC	0.169 ratio
AAUUUCCUGUCAUACUUUUUAGACAUUCACAUCAGACUUACAGAGCACCUGGCCACAUUCUAGGUUUGUGUUAUUUCUAAGCCUUUUAUAUGAUCAAAGAGUGAAAAUGCUUAACUAAUG	0.268 ratio
